Measured values collected from several papers.
Each numbered part is a random draw from the data of one study; scales do not carry over between parts. Several values in a cell are separate wells, animals, samples, runs or records.
UniProt P06493, sequence (whole entry, looked up): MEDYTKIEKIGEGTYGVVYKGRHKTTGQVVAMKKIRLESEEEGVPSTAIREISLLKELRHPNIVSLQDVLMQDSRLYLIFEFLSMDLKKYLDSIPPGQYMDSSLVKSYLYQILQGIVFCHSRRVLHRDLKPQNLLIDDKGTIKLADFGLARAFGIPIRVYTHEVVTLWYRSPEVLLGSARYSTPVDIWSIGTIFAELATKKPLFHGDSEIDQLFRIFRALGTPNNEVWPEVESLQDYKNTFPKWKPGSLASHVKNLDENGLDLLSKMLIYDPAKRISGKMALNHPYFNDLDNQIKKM

Set 1 — effect on: enzyme activity; action: inhibitor; method: fluorescence
SMILES: NC/C(=C\F)COc1ccc(Cl)c(-c2cc(=O)[nH]c(=S)n2CC(N)=O)c1
Target: Myeloperoxidase (MPO, Homo sapiens, UniProt P05164)
tested at	inhibition
500 pM	-18.7% and -17.5%
30 µM	98.2%
0.1852 µM	53.6%
5 µM	93.8%
1.667 µM	81.6%
800 pM	-6.17%
2.3 nM	-2.51%
0.5556 µM	72%

Set 2 — action: inhibitor
SMILES: CCN(CC)CC(=O)N1CCN(c2nc(NCc3nc4cc(Cl)c(Cl)cc4[nH]3)c3ncn(CC)c3n2)CC1
CDK9: Cyclin-dependent kinase 9 (CDK9, Homo sapiens, UniProt P50750)
UniProt P50750, sequence (whole entry, looked up): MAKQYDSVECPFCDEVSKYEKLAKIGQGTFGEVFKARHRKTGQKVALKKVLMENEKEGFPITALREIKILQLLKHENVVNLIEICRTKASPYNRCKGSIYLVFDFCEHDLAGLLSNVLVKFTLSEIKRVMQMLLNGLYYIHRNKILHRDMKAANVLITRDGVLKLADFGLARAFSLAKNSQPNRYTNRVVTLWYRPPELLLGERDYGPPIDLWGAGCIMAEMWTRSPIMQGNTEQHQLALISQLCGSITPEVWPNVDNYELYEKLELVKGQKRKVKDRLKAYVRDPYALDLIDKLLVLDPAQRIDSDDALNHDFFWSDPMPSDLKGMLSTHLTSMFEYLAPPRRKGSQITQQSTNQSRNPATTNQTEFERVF
CDK12 with cyclin K: Cyclin-dependent kinase 12, with cyclin K (CDK12, Homo sapiens, UniProt Q9NYV4)
UniProt Q9NYV4, sequence (whole entry, looked up): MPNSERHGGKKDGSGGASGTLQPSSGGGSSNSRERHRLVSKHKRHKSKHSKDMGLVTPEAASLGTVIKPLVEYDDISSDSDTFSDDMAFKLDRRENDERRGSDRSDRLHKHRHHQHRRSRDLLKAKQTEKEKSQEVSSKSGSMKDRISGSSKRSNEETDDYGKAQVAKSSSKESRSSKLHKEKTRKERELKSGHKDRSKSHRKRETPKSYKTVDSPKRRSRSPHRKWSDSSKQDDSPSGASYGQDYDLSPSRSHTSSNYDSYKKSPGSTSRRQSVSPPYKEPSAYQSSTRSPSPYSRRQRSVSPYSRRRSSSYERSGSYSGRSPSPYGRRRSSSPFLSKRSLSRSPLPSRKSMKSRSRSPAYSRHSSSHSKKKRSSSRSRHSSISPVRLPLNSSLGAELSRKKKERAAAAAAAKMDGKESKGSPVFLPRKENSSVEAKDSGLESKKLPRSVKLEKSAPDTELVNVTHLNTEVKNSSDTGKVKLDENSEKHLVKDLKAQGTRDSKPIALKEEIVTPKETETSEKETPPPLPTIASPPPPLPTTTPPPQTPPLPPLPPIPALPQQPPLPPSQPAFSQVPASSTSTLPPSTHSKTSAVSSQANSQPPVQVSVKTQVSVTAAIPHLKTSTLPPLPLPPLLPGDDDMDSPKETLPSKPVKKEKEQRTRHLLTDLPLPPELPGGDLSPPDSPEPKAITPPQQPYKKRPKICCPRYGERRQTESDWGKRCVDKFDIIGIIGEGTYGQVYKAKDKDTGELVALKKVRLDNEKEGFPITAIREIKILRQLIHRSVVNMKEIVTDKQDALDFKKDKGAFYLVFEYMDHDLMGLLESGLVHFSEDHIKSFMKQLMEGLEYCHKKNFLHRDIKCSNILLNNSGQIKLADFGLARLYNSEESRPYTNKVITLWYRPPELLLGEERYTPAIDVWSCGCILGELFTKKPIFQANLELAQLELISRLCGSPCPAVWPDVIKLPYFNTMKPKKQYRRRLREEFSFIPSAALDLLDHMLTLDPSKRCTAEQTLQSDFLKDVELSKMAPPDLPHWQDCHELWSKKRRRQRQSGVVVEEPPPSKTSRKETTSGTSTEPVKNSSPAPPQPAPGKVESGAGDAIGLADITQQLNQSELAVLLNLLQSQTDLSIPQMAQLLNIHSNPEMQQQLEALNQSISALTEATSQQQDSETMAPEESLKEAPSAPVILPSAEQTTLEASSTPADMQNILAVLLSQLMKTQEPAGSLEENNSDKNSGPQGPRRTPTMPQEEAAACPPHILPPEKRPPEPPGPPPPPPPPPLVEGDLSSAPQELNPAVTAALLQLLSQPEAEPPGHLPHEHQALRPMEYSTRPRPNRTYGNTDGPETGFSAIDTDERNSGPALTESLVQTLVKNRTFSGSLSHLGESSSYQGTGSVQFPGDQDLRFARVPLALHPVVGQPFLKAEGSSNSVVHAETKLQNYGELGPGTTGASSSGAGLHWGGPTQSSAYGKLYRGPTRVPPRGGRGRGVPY
CDK2: Cyclin-dependent kinase 2 (CDK2, Homo sapiens, UniProt P24941)
target	effect on	method	tested at	inhibition [%]
Cyclin-dependent kinase 7 (CDK7, Homo sapiens, UniProt P50613)	enzyme activity	ADP detection	1.5 nM	26.8
Cyclin-dependent kinase 13 (CDK13, Homo sapiens, UniProt Q14004)	enzyme activity	ADP detection	4.6 nM	-9.5
CDK9	enzyme activity	ADP detection	1.5 nM	-0.7
CDK12 with cyclin K	kinase activity	ADP-Glo	0.0027 µM	0.8
CDK2	enzyme activity	ADP detection	0.3704 µM	8
CDK9	enzyme activity	ADP detection	500 pM	0.6
CDK9	enzyme activity	ADP detection	3.333 µM	58.7
CDK9	enzyme activity	ADP detection	0.1235 µM	3
CDK12 with cyclin K	kinase activity	ADP-Glo	0.0003 µM	1.1
CDK2	enzyme activity	ADP detection	10 µM	8.2
CDK12 with cyclin K	kinase activity	ADP-Glo	0.0009 µM	2.6
CDK12 with cyclin K	kinase activity	ADP-Glo	2 µM	82.6

Set 3 — effect on: binding; method: competition with immobilised ligand; tested at: 1 µM
SMILES: COc1cc(-c2nc3ccc(C(=O)NCCCN4CCN(c5cccc(C)c5C)CC4)cc3n2C2CCC2)cc(OC)c1OC
target	remaining binding [%]
Mitogen-activated protein kinase kinase kinase 2 (MAP3K2, Homo sapiens, UniProt Q9Y2U5)	71
Dual specificity mitogen-activated protein kinase kinase 1 (MAP2K1, Homo sapiens, UniProt Q02750)	87
Vascular endothelial growth factor receptor 1 (FLT1, Homo sapiens, UniProt P17948)	100
Non-receptor tyrosine-protein kinase TNK1 (TNK1, Homo sapiens, UniProt Q13470)	77
5'-AMP-activated protein kinase catalytic subunit alpha-1 (PRKAA1, Homo sapiens, UniProt Q13131)	87
Cyclin-dependent kinase 18 (CDK18, Homo sapiens, UniProt Q07002)	96
Dual specificity mitogen-activated protein kinase kinase 6 (MAP2K6, Homo sapiens, UniProt P52564)	81
Serine/threonine-protein kinase D3 (PRKD3, Homo sapiens, UniProt O94806)	78
Interleukin-1 receptor-associated kinase 1 (IRAK1, Homo sapiens, UniProt P51617)	89
Epidermal growth factor receptor (EGFR, Homo sapiens, UniProt P00533, L858R/T790M)	77
Serine/threonine-protein kinase tousled-like 2 (TLK2, Homo sapiens, UniProt Q86UE8)	100
Tyrosine-protein kinase ZAP-70 (ZAP70, Homo sapiens, UniProt P43403)	86
Focal adhesion kinase 1 (PTK2, Homo sapiens, UniProt Q05397)	96
Microtubule-associated serine/threonine-protein kinase 1 (MAST1, Homo sapiens, UniProt Q9Y2H9)	96
Serine/threonine-protein kinase Nek4 (NEK4, Homo sapiens, UniProt P51957)	100
Ephrin type-B receptor 4 (EPHB4, Homo sapiens, UniProt P54760)	85
SNF-related serine/threonine-protein kinase (SNRK, Homo sapiens, UniProt Q9NRH2)	95
Cyclin-dependent kinase 11A (CDK11A, Homo sapiens, UniProt Q9UQ88)	95
Serine/threonine-protein kinase Chk2 (CHEK2, Homo sapiens, UniProt O96017)	100
Serine/threonine-protein kinase D1 (PRKD1, Homo sapiens, UniProt Q15139)	89
Serine/threonine-protein kinase RIO1 (RIOK1, Homo sapiens, UniProt Q9BRS2)	100
Serine/threonine-protein kinase TAO3 (TAOK3, Homo sapiens, UniProt Q9H2K8)	84

Set 4 — cell line: U-87 MG; tested at: concentration not given; relative to: DMSO
SMILES: CCN1/C(=C/C=C2\CCCC(/C=C/C3=[N+](CC)c4ccccc4C3(C)C)=C2NCCCCCCCCN2CCC(Nc3nc4ccccc4n3Cc3ccc(F)cc3)CC2)C(C)(C)c2ccccc21
measured	log2 fold change
DUSP4 mRNA	-0.979
POLR3C mRNA	0.858
ZIC1 mRNA	-0.935
RHBDL3 mRNA	-1.55
CCNE2 mRNA	-1.68
THAP5 mRNA	0.871
CLSPN mRNA	-1.94
RNMT mRNA	1.18
ADGRF2 mRNA	-3.69
GALNT18 mRNA	-0.913
EPB41L5 mRNA	1.5
ATG4B mRNA	0.829
TBRG1 mRNA	1.77
YPEL5 mRNA	1.1
ABAT mRNA	2.13
ZFAND5 mRNA	0.926

Set 5 — tested at: 1 µM
SMILES: CC[C@@]1(c2cccc(C(F)(F)F)c2)C2=C(Nc3n[nH]cc31)[C@H](F)C(C)(C)CC2=O (single isomer, unassigned)
target	effect on	method	relative to	remaining binding
Serine/threonine-protein kinase 32B (STK32B, Homo sapiens, UniProt Q9NY57)	binding	competition with immobilised ligand		88%
Serine/threonine-protein kinase RIO1 (RIOK1, Homo sapiens, UniProt Q9BRS2)	binding	competition with immobilised ligand		100%
Dual specificity mitogen-activated protein kinase kinase 4 (MAP2K4, Homo sapiens, UniProt P45985)	kinase binding	KINOMEscan	DMSO control	100%
Mitotic checkpoint serine/threonine-protein kinase BUB1 (BUB1, Homo sapiens, UniProt O43683)	binding	competition with immobilised ligand		100%
LIM domain kinase 2 (LIMK2, Homo sapiens, UniProt P53671)	kinase binding	KINOMEscan	DMSO control	100%
Phosphatidylinositol 4,5-bisphosphate 3-kinase catalytic subunit alpha isoform (PIK3CA, Homo sapiens, UniProt P42336, E542K)	binding	competition with immobilised ligand		46%
Serine/threonine-protein kinase BRSK1 (BRSK1, Homo sapiens, UniProt Q8TDC3)	binding	competition with immobilised ligand		78%
Tyrosine-protein kinase FRK (FRK, Homo sapiens, UniProt P42685)	kinase binding	KINOMEscan	DMSO control	75%
Serine/threonine-protein kinase ULK2 (ULK2, Homo sapiens, UniProt Q8IYT8)	binding	competition with immobilised ligand		95%
Receptor-interacting serine/threonine-protein kinase 4 (RIPK4, Homo sapiens, UniProt P57078)	kinase binding	KINOMEscan	DMSO control	78%
Non-receptor tyrosine-protein kinase TNK1 (TNK1, Homo sapiens, UniProt Q13470)	kinase binding	KINOMEscan	DMSO control	100%
Serine/threonine-protein kinase 4 (STK4, Homo sapiens, UniProt Q13043)	kinase binding	KINOMEscan	DMSO control	100%
Serine/threonine-protein kinase Sgk3 (SGK3, Homo sapiens, UniProt Q96BR1)	binding	competition with immobilised ligand		100%
Epidermal growth factor receptor (EGFR, Homo sapiens, UniProt P00533, L858R)	binding	competition with immobilised ligand		100%

Set 6 — effect on: thermal unfolding; method: differential scanning fluorimetry; tested at: 5.5 µM; direction: higher = more unfolded
Structure (SMILES): C[C@@H]1CN(c2ccc(-c3cc(C(=O)NCCOCCOCCOCCOCCOCCOCCNC(=O)/C=C/c4[nH]cc(C(=O)N[C@@H](CC(N)=O)c5ccc(F)c(Cl)c5)c4-c4ccc(Cl)cc4F)ccc3F)cc2NC(=O)c2ccc(F)cc2C(F)(F)F)C[C@H](C)N1C
DCAF1: DDB1- and CUL4-associated factor 1 (DCAF1, Homo sapiens, UniProt Q9Y4B6)
UniProt Q9Y4B6, sequence (whole entry, looked up): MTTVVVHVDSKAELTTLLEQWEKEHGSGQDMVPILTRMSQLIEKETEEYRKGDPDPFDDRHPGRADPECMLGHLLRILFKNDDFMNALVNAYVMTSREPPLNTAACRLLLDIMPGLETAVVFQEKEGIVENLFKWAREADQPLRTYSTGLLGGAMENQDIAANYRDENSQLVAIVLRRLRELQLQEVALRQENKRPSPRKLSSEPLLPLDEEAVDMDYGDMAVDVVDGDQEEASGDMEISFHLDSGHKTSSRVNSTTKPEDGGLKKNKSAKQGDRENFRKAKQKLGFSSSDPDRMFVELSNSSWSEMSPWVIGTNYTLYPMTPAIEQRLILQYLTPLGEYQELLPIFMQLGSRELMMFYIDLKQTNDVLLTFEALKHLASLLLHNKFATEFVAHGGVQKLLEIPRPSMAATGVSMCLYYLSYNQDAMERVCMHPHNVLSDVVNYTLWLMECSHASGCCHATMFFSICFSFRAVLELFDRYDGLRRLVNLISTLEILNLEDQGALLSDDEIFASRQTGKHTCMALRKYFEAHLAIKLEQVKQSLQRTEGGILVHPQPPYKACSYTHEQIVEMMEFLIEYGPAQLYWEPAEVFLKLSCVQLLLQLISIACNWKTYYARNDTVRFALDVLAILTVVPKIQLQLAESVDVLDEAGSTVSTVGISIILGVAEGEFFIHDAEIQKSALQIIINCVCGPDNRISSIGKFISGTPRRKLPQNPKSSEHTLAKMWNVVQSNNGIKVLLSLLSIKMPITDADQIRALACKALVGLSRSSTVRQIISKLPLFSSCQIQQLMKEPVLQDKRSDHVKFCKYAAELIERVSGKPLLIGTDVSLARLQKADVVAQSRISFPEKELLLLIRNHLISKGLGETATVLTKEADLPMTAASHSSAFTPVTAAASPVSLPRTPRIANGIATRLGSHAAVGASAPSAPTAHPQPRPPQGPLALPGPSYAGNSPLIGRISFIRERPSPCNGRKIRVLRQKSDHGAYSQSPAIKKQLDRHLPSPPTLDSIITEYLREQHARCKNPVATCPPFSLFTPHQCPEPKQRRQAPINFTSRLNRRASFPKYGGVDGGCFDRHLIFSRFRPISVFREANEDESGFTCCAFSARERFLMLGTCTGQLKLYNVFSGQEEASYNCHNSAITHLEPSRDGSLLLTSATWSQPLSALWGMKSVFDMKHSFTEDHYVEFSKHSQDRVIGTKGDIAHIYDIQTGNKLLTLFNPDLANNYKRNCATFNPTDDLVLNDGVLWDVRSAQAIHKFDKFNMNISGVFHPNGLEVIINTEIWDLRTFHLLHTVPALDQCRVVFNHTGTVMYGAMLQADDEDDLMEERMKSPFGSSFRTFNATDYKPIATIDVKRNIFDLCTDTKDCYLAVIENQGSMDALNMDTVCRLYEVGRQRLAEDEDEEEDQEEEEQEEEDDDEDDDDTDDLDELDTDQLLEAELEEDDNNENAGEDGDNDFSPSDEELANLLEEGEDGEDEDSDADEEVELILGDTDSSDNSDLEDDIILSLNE
WDR5: WD repeat-containing protein 5 (WDR5, Homo sapiens, UniProt P61964)
target	temperature	SYPRO Orange fluorescence
DCAF1	50.4 °C	18400 a.u.
WDR5	51.8 °C	16700 a.u.
WDR5	30.2 °C	13500 a.u.
WDR5	27 °C	13300 a.u.
WDR5	59.81 °C	15400 a.u.
DCAF1	76.41 °C	42600 a.u.
DCAF1	86.01 °C	34900 a.u.
DCAF1	57.01 °C	34300 a.u.
WDR5	35.8 °C	14000 a.u.
WDR5	91.01 °C	53400 a.u.
DCAF1	67.21 °C	51200 a.u.

Set 7 — effect on: kinase activity
SMILES: CN(C1COC1)C(C)(C)/C=C(\C#N)C(=O)N1CCC[C@H]1Cn1nc(-c2ccc(Oc3ccccc3)cc2F)c2c(N)ncnc21
EPHB1: Ephrin type-B receptor 1 (EPHB1, Homo sapiens, UniProt P54762)
target	tested at	inhibition
Macrophage colony-stimulating factor 1 receptor (CSF1R, Homo sapiens, UniProt P07333)	1 µM	5%
Serine/threonine-protein kinase MARK1 (MARK1, Homo sapiens, UniProt Q9P0L2)	1 µM	3%
Angiopoietin-1 receptor (TEK, Homo sapiens, UniProt Q02763)	0.1 µM	-1%
Serine/threonine-protein kinase 24 (STK24, Homo sapiens, UniProt Q9Y6E0)	1 µM	0%
NUAK family SNF1-like kinase 1 (NUAK1, Homo sapiens, UniProt O60285)	1 µM	3%
Tyrosine-protein kinase Fer (FER, Homo sapiens, UniProt P16591)	0.1 µM	-4%
MAP kinase-activated protein kinase 2 (MAPKAPK2, Homo sapiens, UniProt P49137)	0.1 µM	7%
EPHB1	1 µM	-1%
Serine/threonine-protein kinase PAK 2 (PAK2, Homo sapiens, UniProt Q13177)	0.1 µM	-3%
Serine/threonine-protein kinase Nek7 (NEK7, Homo sapiens, UniProt Q8TDX7)	0.1 µM	0%
Interleukin-1 receptor-associated kinase 1 (IRAK1, Homo sapiens, UniProt P51617)	1 µM	1%
ALK tyrosine kinase receptor (ALK, Homo sapiens, UniProt Q9UM73)	1 µM	-4%
RAC-gamma serine/threonine-protein kinase (AKT3, Homo sapiens, UniProt Q9Y243)	1 µM	-1%
Cyclin-dependent kinase 6, with cyclin D3 (CDK6, Homo sapiens, UniProt Q00534)	1 µM	-2%
Phosphatidylinositol 4,5-bisphosphate 3-kinase catalytic subunit gamma isoform (PIK3CG, Homo sapiens, UniProt P48736)	0.1 µM	-11%
Ephrin type-A receptor 8 (EPHA8, Homo sapiens, UniProt P29322)	1 µM	0%
Serine/threonine-protein kinase pim-2 (PIM2, Homo sapiens, UniProt Q9P1W9)	0.1 µM	-1%
Tyrosine-protein kinase BTK (BTK, Homo sapiens, UniProt Q06187)	0.1 µM	97%
Cyclin-dependent kinase 1 (CDK1, Homo sapiens, UniProt P06493)	0.1 µM	6%
EPHB1	0.1 µM	1%
Tyrosine-protein kinase Srms (SRMS, Homo sapiens, UniProt Q9H3Y6)	1 µM	15%

Set 8 — effect on: enzyme activity; action: inhibitor; method: Ub-TR-FRET; sample: HECT domain; tested at: 0.01524 µM; direction: higher = more chain formation
Target: E3 ubiquitin-protein ligase NEDD4, HECT domain (Homo sapiens, UniProt P46934)
UniProt P46934, sequence (whole entry, looked up): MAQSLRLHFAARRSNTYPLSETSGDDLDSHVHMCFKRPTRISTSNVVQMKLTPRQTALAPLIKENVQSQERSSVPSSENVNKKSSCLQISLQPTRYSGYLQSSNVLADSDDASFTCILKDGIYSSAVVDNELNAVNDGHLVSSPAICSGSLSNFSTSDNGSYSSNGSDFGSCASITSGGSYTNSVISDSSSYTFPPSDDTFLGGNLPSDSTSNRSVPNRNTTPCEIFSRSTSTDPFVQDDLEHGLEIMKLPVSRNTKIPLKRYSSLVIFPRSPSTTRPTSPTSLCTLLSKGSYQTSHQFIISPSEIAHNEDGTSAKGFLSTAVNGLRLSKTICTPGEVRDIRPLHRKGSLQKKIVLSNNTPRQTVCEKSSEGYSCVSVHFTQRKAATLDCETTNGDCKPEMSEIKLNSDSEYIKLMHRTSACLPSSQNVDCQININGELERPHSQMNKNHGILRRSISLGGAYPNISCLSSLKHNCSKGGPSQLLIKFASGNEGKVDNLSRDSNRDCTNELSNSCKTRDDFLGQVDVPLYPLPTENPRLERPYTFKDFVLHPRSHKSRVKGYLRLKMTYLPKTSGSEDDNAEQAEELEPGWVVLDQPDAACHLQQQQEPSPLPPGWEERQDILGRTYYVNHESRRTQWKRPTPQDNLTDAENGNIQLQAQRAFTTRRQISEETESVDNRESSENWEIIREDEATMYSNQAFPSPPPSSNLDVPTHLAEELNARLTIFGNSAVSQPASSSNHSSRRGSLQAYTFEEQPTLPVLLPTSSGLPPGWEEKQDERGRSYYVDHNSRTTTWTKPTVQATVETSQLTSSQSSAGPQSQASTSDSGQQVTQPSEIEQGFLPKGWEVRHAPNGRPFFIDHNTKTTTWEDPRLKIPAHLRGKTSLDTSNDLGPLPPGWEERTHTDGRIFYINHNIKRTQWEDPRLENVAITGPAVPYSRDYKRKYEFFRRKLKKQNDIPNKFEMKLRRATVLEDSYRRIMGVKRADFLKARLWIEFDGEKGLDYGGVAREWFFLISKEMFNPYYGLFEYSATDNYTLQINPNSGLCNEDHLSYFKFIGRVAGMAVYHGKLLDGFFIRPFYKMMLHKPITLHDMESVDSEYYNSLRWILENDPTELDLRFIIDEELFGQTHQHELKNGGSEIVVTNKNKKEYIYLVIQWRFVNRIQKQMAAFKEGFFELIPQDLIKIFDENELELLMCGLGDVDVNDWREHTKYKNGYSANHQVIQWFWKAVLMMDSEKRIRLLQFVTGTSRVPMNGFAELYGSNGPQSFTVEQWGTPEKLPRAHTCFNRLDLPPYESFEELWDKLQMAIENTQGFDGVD
Structure (SMILES)	ubiquitin chain formation AUC
Cl.NC(=O)/C=C/CNCCCN1c2ccccc2CCc2ccc(Cl)cc21	139000 a.u.
CN(C)C/C=C/C(=O)NCCCN1c2ccccc2CCc2ccc(Cl)cc21	133000 a.u. and 130000 a.u.
CONC(=O)/C=C/CNCCCCN1c2ccccc2CCc2ccc(Cl)cc21.O=C(O)/C=C\C(=O)O	40200 a.u. and 62600 a.u. and 66200 a.u. and 38700 a.u. and 39500 a.u. and 64600 a.u.
CCOC(=O)/C=C/CNCCCCN1c2cc(Cl)ccc2C(=O)N(C)c2ccccc21.O=C(O)/C=C\C(=O)O	92100 a.u. and 91600 a.u. and 92400 a.u.
N#C/C=C/CNCCCCN1c2ccccc2CCc2ccc(Cl)cc21.O=C(O)/C=C\C(=O)O	93000 a.u. and 92100 a.u. and 100000 a.u. and 88300 a.u. and 99600 a.u. and 101000 a.u.
CCOC(=O)/C=C/CNCCCN1c2ccccc2CCc2ccc(Cl)cc21	46900 a.u. and 44200 a.u. and 44900 a.u.

Repeated from above (set 3):
target	remaining binding [%]
5'-AMP-activated protein kinase catalytic subunit alpha-1 (PRKAA1, Homo sapiens, UniProt Q13131)	87
Cyclin-dependent kinase 18 (CDK18, Homo sapiens, UniProt Q07002)	96
Dual specificity mitogen-activated protein kinase kinase 6 (MAP2K6, Homo sapiens, UniProt P52564)	81
Serine/threonine-protein kinase D3 (PRKD3, Homo sapiens, UniProt O94806)	78
Interleukin-1 receptor-associated kinase 1 (IRAK1, Homo sapiens, UniProt P51617)	89
Epidermal growth factor receptor (EGFR, Homo sapiens, UniProt P00533, L858R/T790M)	77
Serine/threonine-protein kinase tousled-like 2 (TLK2, Homo sapiens, UniProt Q86UE8)	100
Tyrosine-protein kinase ZAP-70 (ZAP70, Homo sapiens, UniProt P43403)	86
Focal adhesion kinase 1 (PTK2, Homo sapiens, UniProt Q05397)	96
Microtubule-associated serine/threonine-protein kinase 1 (MAST1, Homo sapiens, UniProt Q9Y2H9)	96
Serine/threonine-protein kinase Nek4 (NEK4, Homo sapiens, UniProt P51957)	100
